{"data": "Assay results gathered from unrelated publications", "note": "Numbered parts are unrelated; each lists some results of a single study. Changes are numbered by the printed parent chain."}
{"data": "Sample 1", "target": "Interferon regulatory factor 5, full length, phosphomimetic (IRF5, Homo sapiens, UniProt Q13568-2, residues 1-514, S451D/S453D/S456D/S462D)", "method": "protein-binding microarray", "molecule type": "double-stranded DNA, one strand shown", "matrix": "in vitro", "concentration": "940 nM top", "setting": "60-bp whole probe", "added": "salmon DNA 0.4 mg/ml", "relative to": "random background probes", "reading": "higher = stronger binding", "shared flanks, not repeated": "GCCTAGCAC … GTCTTGATTCGCTTGACGCTGCTG"}
{"Sequence": "GACGATAACAGTTTCGAGACGTGCTAG", "fitted relative affinity [z-score]": 3.83}
{"Sequence": "CTTTCTGTCAGTTTTGAGCTGTGCTAG", "fitted relative affinity [z-score]": 1.34}
{"Sequence": "TTAGGATCCGGTTTCGGTTAGTGCTAG", "fitted relative affinity [z-score]": 8.26}
{"Sequence": "TCAACTCCCTCTCTGGCACTGTGCTAG", "fitted relative affinity [z-score]": 0.316}
{"Sequence": "TTAGGTCTCCTTTCCCTTTAGTGCTAG", "fitted relative affinity [z-score]": 0.554}
{"Sequence": "TTAGGACTGGACTTTTGGTTAGTGCTA", "fitted relative affinity [z-score]": -0.149}
{"Sequence": "GACAATATCGGGACTGGAGACGTGCTA", "fitted relative affinity [z-score]": -0.153}
{"Sequence": "GACGGTTTCCTACTTCTGACGTGCTAG", "fitted relative affinity [z-score]": 1.07}
{"data": "Sample 2", "target": "Sal-like protein 4, full length isoform A (SALL4, Homo sapiens, UniProt Q9UJQ4, residues 1-1053)", "method": "universal PBM", "molecule type": "double-stranded DNA, one strand shown", "matrix": "in vitro", "concentration": "600 nM", "setting": "8-mer, flanks averaged, mean of replicates", "reading": "higher = stronger binding", "UniProt Q9UJQ4, sequence (whole entry, looked up)": "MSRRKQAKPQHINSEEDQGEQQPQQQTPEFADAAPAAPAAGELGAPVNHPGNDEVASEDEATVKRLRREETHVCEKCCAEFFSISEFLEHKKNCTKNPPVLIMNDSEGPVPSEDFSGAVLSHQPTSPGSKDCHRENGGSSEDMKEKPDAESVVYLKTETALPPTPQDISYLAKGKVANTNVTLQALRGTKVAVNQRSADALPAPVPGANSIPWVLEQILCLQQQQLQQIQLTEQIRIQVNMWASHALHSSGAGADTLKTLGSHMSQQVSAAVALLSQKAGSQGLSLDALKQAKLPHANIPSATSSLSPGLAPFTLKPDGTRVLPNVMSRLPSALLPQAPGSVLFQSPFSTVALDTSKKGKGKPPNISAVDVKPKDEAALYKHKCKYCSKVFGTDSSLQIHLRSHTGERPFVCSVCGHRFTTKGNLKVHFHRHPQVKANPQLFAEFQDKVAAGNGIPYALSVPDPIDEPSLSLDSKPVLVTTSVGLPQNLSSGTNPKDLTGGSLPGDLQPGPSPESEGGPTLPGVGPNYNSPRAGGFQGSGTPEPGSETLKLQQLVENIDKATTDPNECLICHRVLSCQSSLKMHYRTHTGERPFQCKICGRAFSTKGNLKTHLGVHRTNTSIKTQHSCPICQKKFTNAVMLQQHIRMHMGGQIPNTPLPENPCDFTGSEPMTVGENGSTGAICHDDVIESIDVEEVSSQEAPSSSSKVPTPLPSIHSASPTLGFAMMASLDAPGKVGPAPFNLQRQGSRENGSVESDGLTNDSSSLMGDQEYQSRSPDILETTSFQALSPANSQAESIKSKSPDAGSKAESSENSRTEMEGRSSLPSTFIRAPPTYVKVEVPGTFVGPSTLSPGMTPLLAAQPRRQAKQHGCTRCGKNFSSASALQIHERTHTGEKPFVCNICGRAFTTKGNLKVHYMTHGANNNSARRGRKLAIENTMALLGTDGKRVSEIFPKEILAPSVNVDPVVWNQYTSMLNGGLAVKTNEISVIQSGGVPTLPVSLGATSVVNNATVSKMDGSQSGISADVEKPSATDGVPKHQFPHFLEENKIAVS"}
{"Sequence": "CTCGTAAA", "E-score": 0.0875}
{"Sequence": "CAACACTA", "E-score": 0.117}
{"Sequence": "AAAAGTTT", "E-score": 0.229}
{"Sequence": "GCGGCGAC", "E-score": -0.211}
{"Sequence": "CCGACGCA", "E-score": -0.213}
{"Sequence": "CTGTTGTC", "E-score": -0.0999}
{"Sequence": "CTCCGAGA", "E-score": -0.19}
{"Sequence": "ACCCCGGA", "E-score": -0.188}
{"data": "Further values, each from its own experiment", "P1": "viral docking peptide; KGVKRKLFAEDSS; partner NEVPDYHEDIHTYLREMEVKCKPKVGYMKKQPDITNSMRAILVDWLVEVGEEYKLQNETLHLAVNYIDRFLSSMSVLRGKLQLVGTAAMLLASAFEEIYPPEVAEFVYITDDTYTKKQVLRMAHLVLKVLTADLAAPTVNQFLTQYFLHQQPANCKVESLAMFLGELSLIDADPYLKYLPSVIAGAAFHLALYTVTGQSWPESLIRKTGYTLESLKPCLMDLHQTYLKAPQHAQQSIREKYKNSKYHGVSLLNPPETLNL"}
{"Substance": "NIPSNAP2 (Homo sapiens, UniProt O75323)", "tested on": "NIPSNAP1 (Homo sapiens, UniProt Q9BPW8)", "test": "cross-linking MS", "test system": "cells", "setting": "added: BSPNO", "measurement": "cross-linked residues", "result": "K281 to K143"}
{"Substance": "P1 S12E", "tested on": "CCNA2, cyclin fold, Cln2 fusion (human)", "test": "yeast growth competition, sequencing", "test system": "yeast", "setting": "strong parent motif", "scale": "relative to: not given, higher = stronger binding", "measurement": "normalised enrichment score", "result": 6.02}
